Results pooled from the literature.
Parts stem from different laboratories: compare values within a part only.

Study 1
Target: RNA binding protein fox-1 homolog 2, RRM domain, GST-SBP tag (RBFOX2, Homo sapiens, UniProt O43251-10, residues 100-194)
Technique: RNA Bind-n-Seq
Form: RNA
Medium: in vitro
Tested at: 365 nM
Setting: natural RNA segment, single round, ends assumed
Relative to: no-protein control
Direction: higher = stronger binding
Shared flanks, not repeated: GGGAGUUCUACAGUCCGACGAUC … UGGAAUUCUCGGGUGCCAA
Residues (chain): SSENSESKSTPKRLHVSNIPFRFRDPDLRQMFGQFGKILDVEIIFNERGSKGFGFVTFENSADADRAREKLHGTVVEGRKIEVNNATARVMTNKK
Sequence	RBNS enrichment (R)
CCCACCAUGCGCUGCUCAACCUCUCUCCUUCUGGCGCAAGAGAACAUUUCUAGAAAAAACUACUUUUGUACCAGUGUGAAUAAAGUUAGUGUGUUGUCUGUGCAGCUGCA	0.235
UAGACCUGCCCGCCUUCGUUCCUACAGUUAGAUCAUCUUGAGAGAUACUUAAAAGUAUCUCCUCCUUACUUGAAAGAAUGAUGUUCUACAUGCUAAUAUUUGUGAGACAU	0.507
ACCCUCUUGCCCAGCCGGCUGCAAGUUUUGUAAGCGCGGACAGACACUGCUGAACCUUUCCUCUGGGACCCCCUGUGGCCCUCGCUCUGCCUCCUGUCCUUGUCGCUGUG	0.347
GUCCAGCCGGUCCAAGCACAUGGCCUCCCAUCUGGGAGAGCCCACUGUCCCACUCCCACAUGUCUGGGCACCUGCCCUGGGCUGAGGCCAGGCUGCUCCAGGGGCCUCCU	0.239
GGACCUGGUGCCCUGGGUGGUGGAGGGCUCAGCCCUCUUGAUUCAGUAGCUUCCCAAGCAGCUGCUCCUCUCAGGAGCCUGCUUAACACUUGCGCCAGCUCAGAGGCCUG	0.26
AUCGAGGCCGCCCUCCCAGUCCUGGGUGAAGAUAUUUGGGCCACCAGGGCUCCCUUGGCCCCUUCACGUAGGAAAUAGACACGUGCUUUUUAAUGCAGGACACUUUGAGU	0.654
GCAGGAUUCUAUUUUGAGGGAAAAGACAGUAUCCUUAUUACCUUUUGUUUGUUUAAUAGCACAAAUGCUUAUUUGUUAUCCAAAAACAACCUCCUUCUUAUCUGUGAUAA	0.389
ACUGUUUGGACCUCAGGACCUUUUCCCCUCUGGGACACUGCAUGCCGUGGAAAACCUUUUCAGAAACUACAUUCAUUGUUCUUUAAGCAGACCAAAAGUCACAACAGUGG	2.45
CUGAAAACUAUCAUUAGCCAGCCUUUCUUACUGACAAUAAAUUAUUAAUAAAAUACUUUAGCUUUAAUGCCUGGUUUUCUUCUGCAUUUAUAUUGCUGUUUAUGAUCUAC	0.531
CCACUGCCCAACCUUCUCCUGAUAACCAUGGCAUGCACCGUCUCCUCUCCCCUGCCCCUCUUCCCUGACCCCAGCUGGCUAGCACUGCAGAGUUUGGCUGCUGGCAGUGU	1.08
GUGCUCCCCUCCAAGACCCCUUAGCACAAGGGGAGACCCGCAGGCGGGGCUGAGCCACCCCCACAACCCUACCUUCUUCAUCCCCUCUGUCCCGUCUGUGGCAGAGGUUU	0.368
UCACCCAGGGCUCCUAGGGGGACAAGGCUCUCUCCCGAGGGGUGUGGAAUUCCUGGGGGGGUCUUUAAUUCUGGCUCCUUCCUUCCUCAGAACAUCUCUAUUCUGCAAGA	0.744

Study 2
Target: Centromere-binding protein 1, full length, His-tagged (CBF1, Saccharomyces cerevisiae, UniProt P17106, residues 1-351)
Chain of UniProt P17106 (whole entry, looked up): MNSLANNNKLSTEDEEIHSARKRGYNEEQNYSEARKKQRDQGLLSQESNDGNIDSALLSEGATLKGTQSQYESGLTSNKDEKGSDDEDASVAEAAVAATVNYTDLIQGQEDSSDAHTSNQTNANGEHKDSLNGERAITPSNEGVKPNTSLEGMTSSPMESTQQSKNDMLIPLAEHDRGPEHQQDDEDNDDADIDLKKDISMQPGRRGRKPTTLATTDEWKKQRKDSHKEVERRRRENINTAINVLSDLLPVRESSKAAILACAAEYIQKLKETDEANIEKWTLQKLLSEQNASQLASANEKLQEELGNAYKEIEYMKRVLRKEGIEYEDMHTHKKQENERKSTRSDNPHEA
Technique: competition protein-binding microarray
Form: double-stranded DNA, one strand shown
Medium: in vitro
Tested at: 2 µM
Setting: whole 60-bp probe, lowest competitor level
Added: Pho4 competitor, 0.05 µM
Direction: higher = stronger binding
Shared flanks, not repeated: … GTCTTGATTCGCTTGACGCTGCTG
Sequence	fluorescence intensity [a.u.]
CTTTGTCGTCCCTGGCACGGCTGTCTTGTGCTCAGT	69.7
TCCGCGCCGTATGTGTGTGTGACAGTGGAGTTTGCA	92.5
AAAGCGGTAATTTTTCACGTGGACTCACATATCTAT	820
GTCTTGTCTCATTGTCACCATACTTTCCCCACTTCA	108
TGTTCATTCATTATTCAATGCAAAGTATAAAGACAG	86.4
CTTGGCGTTGGTTATTGCGTGCTTTTCAAAAGACTC	86.1
AATTTTTTTCTTCGGCACGTCATACACCTTGTAATG	74.4
CTAACGAAGGTTTGCTTTGTGGGTGACAAGCCAAGT	75
CTTCTGTAAATTTGTGCTGTGGGTGGACGCGCCCCG	89.8
CGGGGTTAAGTTTTTCACGTGCCTTGCTTGCAGCAG	900
GATCCGTATGCTCATCTCGTGATGGAGAAGTAACGC	403
CGTCACTTGCCAGGTCACATGGGCAAATGGCCAGCG	1690
AAAGCGGTAATTTGACATGTGGGTGCAGATATCTAT	101
ACCCGGTGCAGGTTCGTCGTGCCGAAAGACTCACCA	67.5
ATACAACAAAGCGACCGCGTGACGGTTAGACAAGAC	404
CGTCCTAGTGATTTTCACGTGGTGTCCATGAGGAAG	905
AAATTACTAAGTTTTCACGTGTTATACCCCGTATGA	1120
CTGGTACTGAAGAATCACATGTGTGGAACGGTATAG	516
CTGCCTCTTTTCCAGCATGTGGCAACTGTCCCGACG	83.8
CATACCCAACCTTGACCCGTGGGTGAAGATATTTGT	67.5
CATACCCAACCTTGCGTTGTGGGTGAAGATATTTGT	68.7
ACCCTTACCGGCCTTGACGTGGGTAACAGCGGTAGC	49.8
TTCGATGATGCTTGTCACGTGAACGAAGACTTCCAG	6700
CTTCTGTAAATTTGACACGTGGGTGGACGCGCCCCG	1110
ACAAAAGAACATCGGCACGCAATGTTGCTTTGACAA	60.5

Study 3
Target: Histone acetyltransferase KAT6A, winged helix 1, GST fusion (KAT6A, Homo sapiens, UniProt Q92794, residues 1-85)
Technique: protein binding microarray
Form: double-stranded DNA, one strand shown
Medium: in vitro
Tested at: not given
Setting: 8-mer, flanks averaged, mean of 2 arrays, mostly near background
Relative to: not given
Direction: higher = stronger binding
Construct (chain): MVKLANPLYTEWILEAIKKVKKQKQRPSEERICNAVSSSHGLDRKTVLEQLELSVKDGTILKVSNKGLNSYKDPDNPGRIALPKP
Sequence	E-score
CAGCCGAG	-0.051
AATGGCGA	-0.069
AGTCAGCC	-0.0125
AGCACACC	-0.116
GCCCATGA	0.0276
CGCCGCTA	0.429
ATTGACGG	0.239
CGACAACC	0.0295
CATCTAAG	-0.0213
GGTAAACA	0.0203
CGCCACTA	0.133
CAAAAACA	-0.148
CGTTTGGC	0.0914
ATAATTAT	-0.0561
GAAGATCA	-0.151
AACCCAAG	-0.215
CTGAACTC	-0.235
ATGTGGGA	-0.248
TCAGCACA	-0.177
AGAGAAGC	0.0267
ATTCAAAG	-0.169
GGACCGAC	0.239

Study 4
Target: Sal-like protein 4, full length isoform A (SALL4, Homo sapiens, UniProt Q9UJQ4, residues 1-1053)
Chain of UniProt Q9UJQ4 (whole entry, looked up): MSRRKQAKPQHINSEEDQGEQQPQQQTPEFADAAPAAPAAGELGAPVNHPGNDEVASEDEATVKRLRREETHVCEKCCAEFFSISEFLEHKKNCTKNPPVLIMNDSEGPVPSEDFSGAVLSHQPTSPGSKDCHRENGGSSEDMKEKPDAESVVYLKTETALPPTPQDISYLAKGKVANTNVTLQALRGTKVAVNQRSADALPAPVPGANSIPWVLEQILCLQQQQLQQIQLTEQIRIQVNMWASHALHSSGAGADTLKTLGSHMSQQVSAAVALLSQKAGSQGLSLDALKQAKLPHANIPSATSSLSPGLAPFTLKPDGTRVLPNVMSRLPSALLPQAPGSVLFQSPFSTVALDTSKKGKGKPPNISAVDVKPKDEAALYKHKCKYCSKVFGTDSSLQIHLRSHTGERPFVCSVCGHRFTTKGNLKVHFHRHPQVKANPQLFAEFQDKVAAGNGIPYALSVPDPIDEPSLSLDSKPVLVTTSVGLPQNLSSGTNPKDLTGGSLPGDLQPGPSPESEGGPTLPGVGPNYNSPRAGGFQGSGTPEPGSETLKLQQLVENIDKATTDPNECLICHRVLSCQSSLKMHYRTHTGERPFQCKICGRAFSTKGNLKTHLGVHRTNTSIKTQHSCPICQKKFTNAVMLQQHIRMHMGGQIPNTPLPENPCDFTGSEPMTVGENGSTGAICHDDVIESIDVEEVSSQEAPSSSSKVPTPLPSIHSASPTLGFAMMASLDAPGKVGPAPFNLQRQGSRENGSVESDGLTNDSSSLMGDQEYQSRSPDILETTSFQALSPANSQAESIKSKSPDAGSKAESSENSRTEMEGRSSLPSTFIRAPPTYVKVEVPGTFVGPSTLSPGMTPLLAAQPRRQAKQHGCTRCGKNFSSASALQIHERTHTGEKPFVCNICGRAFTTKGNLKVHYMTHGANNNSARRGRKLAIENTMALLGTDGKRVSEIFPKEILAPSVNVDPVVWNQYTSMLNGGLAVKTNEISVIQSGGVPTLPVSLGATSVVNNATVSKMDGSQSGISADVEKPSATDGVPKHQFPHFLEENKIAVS
Technique: universal PBM
Form: double-stranded DNA, one strand shown
Medium: in vitro
Tested at: 600 nM
Setting: 8-mer, flanks averaged, mean of replicates
Direction: higher = stronger binding
Sequence	E-score
CACCAATG	-0.0338
CGCATACG	-0.0177
AGGCCCAG	-0.254
CGGGATAG	-0.194
CCGATCGA	-0.1
ACCCGGCT	-0.287
CCGGATCC	-0.288
CAACCGTC	-0.342
TTTCCAAA	0.271
CTAGATGC	-0.0201
CAAGCGTC	-0.259
AAATACCA	0.242
ATCCGTTC	0.0527
CAAACTTA	0.191
ATCCCAAA	0.108
AGAGCAAT	0.00801
ACGACGGC	-0.293
AGGGACCT	-0.219
CCCACCGC	-0.266
AATTGCCC	0.0923
AAGAGCTT	-0.0784
ATGCCGCC	-0.235
CAAGAAGG	0.0199

Study 5
Target: Ras GTPase-activating protein-binding protein 1, full length (G3BP1, Homo sapiens, UniProt Q13283)
Chain of UniProt Q13283 (whole entry, looked up): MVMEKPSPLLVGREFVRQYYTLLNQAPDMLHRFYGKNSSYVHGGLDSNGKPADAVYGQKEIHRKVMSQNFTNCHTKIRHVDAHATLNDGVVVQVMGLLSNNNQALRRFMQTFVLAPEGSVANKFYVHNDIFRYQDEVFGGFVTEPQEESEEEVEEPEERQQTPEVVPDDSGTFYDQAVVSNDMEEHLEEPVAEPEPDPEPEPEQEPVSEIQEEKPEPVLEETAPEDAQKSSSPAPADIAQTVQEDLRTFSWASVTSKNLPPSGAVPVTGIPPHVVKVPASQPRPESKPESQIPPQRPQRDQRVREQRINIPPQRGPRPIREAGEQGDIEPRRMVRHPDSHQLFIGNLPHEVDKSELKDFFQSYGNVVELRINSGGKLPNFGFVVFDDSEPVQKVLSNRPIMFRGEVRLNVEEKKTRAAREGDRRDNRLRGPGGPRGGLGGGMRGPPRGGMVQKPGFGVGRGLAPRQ
Technique: RNA Bind-n-Seq
Form: RNA
Medium: in vitro
Tested at: 200 nM
Setting: whole 134-nt RNA, ends assumed
Added: 150 mM LiCl
Relative to: input library
Direction: higher = stronger binding
All molecules: 7-deaza-guanosine replaces G
Shared flanks, not repeated: GGGAGUUCUACAGUCCGACGAUC … UGGAAUUCUCGGGUGUCAAGG
Sequence	log2 enrichment
AAGUCCUGUGCUACACAUCGUAUGUACCGAAUCGGGAAAGGGAAAAAAAGGGAGGGAAAGUAUUAUGUUACGCCGUUCGGAUCUGCACUU	0.34
AAGUCCUGUGCUACACAUCGUAUGUACCGAAUCGGUUUUUGGUUUUUUUGGUUUGGAAAGUAUUAUGUUACGCCGUUCGGAUCUGCACUU	-1.61
CCUCAAGUCCUGUGCUACACAUCGUAUGUACCGAAUCGGUGGUGGUUUUUGGAAAGUAUUAUGUUACGCCGUUCGGAUCUGCACUUCCAG	0.0575
UAACUUUAGAGUAGGAUCUGAUGGAUAUGGCAGUGGACGUGGAUUUGGGGAUGGCUAUAAUGGGUAUGGAGGAGGACCUGGAGGUGGCAA	-0.218
UCAAGUCCUGUGCUACACAUCGUAUGUACCGAAUCGGUUUGGUGGUUUUUUUGGAAAGUAUUAUGUUACGCCGUUCGGAUCUGCACUUCC	0.13
CCUCAAGUCCUGUGCUACACAUCGUAUGUACCGAAUCGGGGCGGCGGCGGGGAAAGUAUUAUGUUACGCCGUUCGGAUCUGCACUUCCAG	0.042
GUCCUGUGCUACACAUCGUAUGUACCGAAUCGGGCCCCCGGGCCCCCGGCCCCCGGGGAAAGUAUUAUGUUACGCCGUUCGGAUCUGCAC	-0.578
GUCCUGUGCUACACAUCGUAUGUACCGAAUCGGGGAAAAAAAGGGGUUUGGGGUGGGGAAAGUAUUAUGUUACGCCGUUCGGAUCUGCAC	-1.25
AGUCCUGUGCUACACAUCGUAUGUACCGAAUCGGUUUUUGGAAAAAGGUUUUUUUGGAAAGUAUUAUGUUACGCCGUUCGGAUCUGCACU	-2.71
AAGUCCUGUGCUACACAUCGUAUGUACCGAAUCGGUUUGGAAAAAGGUUUUUUUGGAAAGUAUUAUGUUACGCCGUUCGGAUCUGCACUU	-1.69
GCAGGAAGUAAAAACAAAUGGAAAUGCUUCGGAUAGUGGCAGGGGUGGGGGUUGCUAAGGAAAGGGUGGGUUGGGAGUGGGUAAAGAGUU	0.338

A few entries again (study 3):
Sequence	E-score
CAGCCGAG	-0.051
AATGGCGA	-0.069
AGTCAGCC	-0.0125
AGCACACC	-0.116
GCCCATGA	0.0276
CGCCGCTA	0.429
ATTGACGG	0.239
CGACAACC	0.0295
CATCTAAG	-0.0213
GGTAAACA	0.0203
CGCCACTA	0.133
CAAAAACA	-0.148
CGTTTGGC	0.0914
ATAATTAT	-0.0561
